Published values collected from several papers.
Each numbered part is a random draw from the data of one study; scales do not carry over between parts.
Sequence of UniProt Q9UHD2 (whole entry, looked up): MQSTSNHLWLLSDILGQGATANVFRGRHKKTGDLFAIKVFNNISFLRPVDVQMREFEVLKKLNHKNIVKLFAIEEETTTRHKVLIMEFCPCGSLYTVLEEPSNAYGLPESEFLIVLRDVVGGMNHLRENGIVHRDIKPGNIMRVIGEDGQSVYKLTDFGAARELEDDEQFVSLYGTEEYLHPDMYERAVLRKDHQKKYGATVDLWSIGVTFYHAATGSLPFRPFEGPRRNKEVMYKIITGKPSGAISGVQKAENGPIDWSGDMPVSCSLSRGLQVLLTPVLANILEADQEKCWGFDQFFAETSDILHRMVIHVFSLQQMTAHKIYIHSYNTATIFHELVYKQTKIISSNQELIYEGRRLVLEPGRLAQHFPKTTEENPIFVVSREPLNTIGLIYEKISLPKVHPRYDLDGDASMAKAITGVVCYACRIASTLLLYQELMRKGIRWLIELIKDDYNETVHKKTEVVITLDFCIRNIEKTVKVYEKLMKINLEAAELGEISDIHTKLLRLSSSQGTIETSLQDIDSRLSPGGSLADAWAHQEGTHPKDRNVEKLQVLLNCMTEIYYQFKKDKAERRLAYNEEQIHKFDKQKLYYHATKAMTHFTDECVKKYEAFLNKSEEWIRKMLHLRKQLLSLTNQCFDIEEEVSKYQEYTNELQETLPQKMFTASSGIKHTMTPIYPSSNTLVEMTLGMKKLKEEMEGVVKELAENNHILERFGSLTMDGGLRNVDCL
Sequence of UniProt O95747 (whole entry, looked up): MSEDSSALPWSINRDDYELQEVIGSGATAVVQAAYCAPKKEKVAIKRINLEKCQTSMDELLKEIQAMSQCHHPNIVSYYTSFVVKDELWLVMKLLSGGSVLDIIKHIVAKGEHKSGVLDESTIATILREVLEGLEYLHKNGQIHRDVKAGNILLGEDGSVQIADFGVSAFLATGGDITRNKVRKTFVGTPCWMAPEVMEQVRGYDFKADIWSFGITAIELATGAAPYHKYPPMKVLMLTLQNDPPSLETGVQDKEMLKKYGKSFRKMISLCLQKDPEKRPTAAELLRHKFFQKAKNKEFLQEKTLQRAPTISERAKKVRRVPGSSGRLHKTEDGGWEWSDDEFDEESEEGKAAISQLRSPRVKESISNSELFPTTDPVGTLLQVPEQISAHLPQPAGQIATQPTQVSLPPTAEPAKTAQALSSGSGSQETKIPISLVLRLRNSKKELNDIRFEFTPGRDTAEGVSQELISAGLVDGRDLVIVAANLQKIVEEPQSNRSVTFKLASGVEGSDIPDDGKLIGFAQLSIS
Sequence of UniProt Q9BZL6 (whole entry, looked up): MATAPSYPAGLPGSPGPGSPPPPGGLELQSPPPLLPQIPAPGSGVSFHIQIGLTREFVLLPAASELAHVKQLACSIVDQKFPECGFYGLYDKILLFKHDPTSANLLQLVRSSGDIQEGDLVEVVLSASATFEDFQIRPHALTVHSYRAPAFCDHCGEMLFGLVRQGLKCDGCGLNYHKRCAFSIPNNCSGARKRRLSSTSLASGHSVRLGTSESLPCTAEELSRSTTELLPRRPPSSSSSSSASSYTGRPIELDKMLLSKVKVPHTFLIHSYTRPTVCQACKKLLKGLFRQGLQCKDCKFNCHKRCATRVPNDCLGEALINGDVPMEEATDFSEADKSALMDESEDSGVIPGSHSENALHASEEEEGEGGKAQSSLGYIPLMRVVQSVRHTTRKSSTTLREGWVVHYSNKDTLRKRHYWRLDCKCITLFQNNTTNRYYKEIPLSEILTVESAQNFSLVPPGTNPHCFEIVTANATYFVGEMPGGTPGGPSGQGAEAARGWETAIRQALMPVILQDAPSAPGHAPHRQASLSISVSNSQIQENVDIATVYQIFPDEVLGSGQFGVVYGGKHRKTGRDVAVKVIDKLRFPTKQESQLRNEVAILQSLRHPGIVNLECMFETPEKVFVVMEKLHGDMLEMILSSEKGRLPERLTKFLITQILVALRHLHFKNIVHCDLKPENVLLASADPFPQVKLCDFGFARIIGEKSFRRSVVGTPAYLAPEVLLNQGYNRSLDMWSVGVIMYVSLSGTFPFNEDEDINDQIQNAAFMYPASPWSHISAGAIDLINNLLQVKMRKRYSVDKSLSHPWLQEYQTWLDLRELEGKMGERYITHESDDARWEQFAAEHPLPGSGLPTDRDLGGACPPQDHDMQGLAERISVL
Sequence of UniProt Q9Y6M4 (whole entry, looked up): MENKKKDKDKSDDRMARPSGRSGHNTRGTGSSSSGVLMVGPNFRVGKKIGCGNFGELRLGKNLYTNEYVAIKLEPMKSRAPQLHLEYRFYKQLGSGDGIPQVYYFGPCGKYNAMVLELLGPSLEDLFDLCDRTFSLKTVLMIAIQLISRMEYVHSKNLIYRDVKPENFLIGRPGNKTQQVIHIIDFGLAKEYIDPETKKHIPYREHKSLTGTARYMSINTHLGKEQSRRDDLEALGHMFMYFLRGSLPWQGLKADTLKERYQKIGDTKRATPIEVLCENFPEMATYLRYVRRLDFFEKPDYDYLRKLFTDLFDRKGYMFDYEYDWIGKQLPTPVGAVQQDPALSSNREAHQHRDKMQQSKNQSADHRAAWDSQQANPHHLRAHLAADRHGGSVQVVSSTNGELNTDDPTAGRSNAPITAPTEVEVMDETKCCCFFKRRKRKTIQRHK
Sequence of UniProt P48729 (whole entry, looked up): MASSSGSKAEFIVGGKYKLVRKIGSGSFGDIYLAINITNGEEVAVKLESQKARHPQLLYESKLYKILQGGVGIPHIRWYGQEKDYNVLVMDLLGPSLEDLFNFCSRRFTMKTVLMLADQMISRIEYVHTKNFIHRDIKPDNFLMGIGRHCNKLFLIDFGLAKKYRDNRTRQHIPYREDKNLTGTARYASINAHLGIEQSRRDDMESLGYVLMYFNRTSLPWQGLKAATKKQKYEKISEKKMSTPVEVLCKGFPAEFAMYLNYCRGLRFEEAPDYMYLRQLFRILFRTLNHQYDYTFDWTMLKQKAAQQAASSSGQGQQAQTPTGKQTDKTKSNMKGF

Sample 1 — observed: kinase activity
Compound: CN(C1COC1)C(C)(C)/C=C(\C#N)C(=O)N1CCC[C@H]1Cn1nc(-c2ccc(Oc3ccccc3)cc2F)c2c(N)ncnc21
target | concentration | inhibition [%]
CSNK1G1 (Homo sapiens, UniProt Q9HCP0) | 1 µM | 10
MKNK2 (Homo sapiens, UniProt Q9HBH9) | 0.1 µM | 5
PRKG2 (Homo sapiens, UniProt Q13237) | 1 µM | -7
MERTK (Homo sapiens, UniProt Q12866) | 0.1 µM | 2
Aurora kinase B (AURKB, Homo sapiens, UniProt Q96GD4) | 0.1 µM | 5
JAK1 (Homo sapiens, UniProt P23458) | 1 µM | 6
HIPK2 (Homo sapiens, UniProt Q9H2X6) | 1 µM | 2
LCK (Homo sapiens, UniProt P06239) | 0.1 µM | 19
CAMK2A (Homo sapiens, UniProt Q9UQM7) | 0.1 µM | 3
MAP4K5 (Homo sapiens, UniProt Q9Y4K4) | 1 µM | 5
CAMK1D (Homo sapiens, UniProt Q8IU85) | 0.1 µM | 4
TAOK2 (Homo sapiens, UniProt Q9UL54) | 1 µM | 3
EPHB4 (Homo sapiens, UniProt P54760) | 1 µM | -3
CDC42BPB (Homo sapiens, UniProt Q9Y5S2) | 0.1 µM | 3
MAPK9 (Homo sapiens, UniProt P45984) | 1 µM | -15
TBK1 (Homo sapiens, UniProt Q9UHD2) | 1 µM | 0
MINK1 (Homo sapiens, UniProt Q8N4C8) | 1 µM | -4

Sample 2 — SMILES: Cc1cc(OCC(=O)NC(C)C)ccc1Cl; action: inhibitor; technique: FLIPR membrane potential; cells: CHO-BC cells; setting: unit not given
Target: Sodium-dependent neutral amino acid transporter B(0)AT1 (SLC6A19, Homo sapiens, UniProt Q695T7)
Sequence of UniProt Q695T7 (whole entry, looked up): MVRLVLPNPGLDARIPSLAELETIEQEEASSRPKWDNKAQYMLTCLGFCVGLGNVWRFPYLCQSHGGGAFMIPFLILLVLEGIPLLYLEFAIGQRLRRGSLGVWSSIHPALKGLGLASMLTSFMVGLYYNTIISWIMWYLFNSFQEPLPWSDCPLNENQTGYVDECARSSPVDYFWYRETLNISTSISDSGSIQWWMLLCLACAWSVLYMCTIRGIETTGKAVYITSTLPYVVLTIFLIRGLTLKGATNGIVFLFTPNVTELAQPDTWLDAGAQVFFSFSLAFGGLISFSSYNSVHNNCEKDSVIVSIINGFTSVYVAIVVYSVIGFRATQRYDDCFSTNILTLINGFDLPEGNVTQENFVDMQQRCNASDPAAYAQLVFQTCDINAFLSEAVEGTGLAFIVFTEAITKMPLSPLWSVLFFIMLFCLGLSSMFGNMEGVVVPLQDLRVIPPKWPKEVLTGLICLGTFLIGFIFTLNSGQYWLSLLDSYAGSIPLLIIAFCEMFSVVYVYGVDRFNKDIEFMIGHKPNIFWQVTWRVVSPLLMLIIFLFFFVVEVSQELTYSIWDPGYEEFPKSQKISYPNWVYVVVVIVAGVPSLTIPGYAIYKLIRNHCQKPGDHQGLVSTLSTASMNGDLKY
concentration | relative to | remaining transport activity
30 µM | uninhibited cells | 0.0515
0.001 µM | uninhibited cells | 1.01
0.003 µM | uninhibited cells | 1.09
1 µM | uninhibited cells | 0.305
0.3 µM | uninhibited cells | 0.683
0.1 µM | uninhibited cells | 0.889
100 µM | uninhibited cells | 0.0516
0.01 µM | uninhibited cells | 1.02
10 µM | uninhibited cells | 0.152
0.03 µM | uninhibited cells | 0.89
3 µM | uninhibited cells | 0.198
100 µM | no inhibitor | 0.104

Sample 3 — concentration: 1 µM
Compound: CC[C@@]1(c2cccc(C(F)(F)F)c2)C2=C(Nc3n[nH]cc31)[C@H](F)C(C)(C)CC2=O (single isomer, unassigned)
target | observed | technique | relative to | remaining binding
TEC (Homo sapiens, UniProt P42680) | kinase binding | KINOMEscan | DMSO control | 100%
CSNK1G3 (Homo sapiens, UniProt Q9Y6M4) | kinase binding | KINOMEscan | DMSO control | 100%
STK35 (Homo sapiens, UniProt Q8TDR2) | binding | competition with immobilised ligand | – | 98%
CAMK1G (Homo sapiens, UniProt Q96NX5) | binding | competition with immobilised ligand | – | 91%
CSNK1A1 (Homo sapiens, UniProt P48729) | kinase binding | KINOMEscan | DMSO control | 95%
BMPR1A (Homo sapiens, UniProt P36894) | binding | competition with immobilised ligand | – | 100%
DYRK1B (Homo sapiens, UniProt Q9Y463) | binding | competition with immobilised ligand | – | 100%
TBK1 (Homo sapiens, UniProt Q9UHD2) | binding | competition with immobilised ligand | – | 61%
BTK (Homo sapiens, UniProt Q06187) | binding | competition with immobilised ligand | – | 100%
BMPR1B (Homo sapiens, UniProt O00238) | kinase binding | KINOMEscan | DMSO control | 100%
RPS6KB1 (Homo sapiens, UniProt P23443) | kinase binding | KINOMEscan | DMSO control | 68%
OXSR1 (Homo sapiens, UniProt O95747) | kinase binding | KINOMEscan | DMSO control | 100%
NEK5 (Homo sapiens, UniProt Q6P3R8) | kinase binding | KINOMEscan | DMSO control | 100%
EPHB1 (Homo sapiens, UniProt P54762) | binding | competition with immobilised ligand | – | 100%
KIT (Homo sapiens, UniProt P10721, V559D/V654A) | binding | competition with immobilised ligand | – | 97%
IRAK3 (Homo sapiens, UniProt Q9Y616) | binding | competition with immobilised ligand | – | 82%
PRKD2 (Homo sapiens, UniProt Q9BZL6) | kinase binding | KINOMEscan | DMSO control | 71%
CDKL5 (Homo sapiens, UniProt O76039) | kinase binding | KINOMEscan | DMSO control | 100%
EPHA4 (Homo sapiens, UniProt P54764) | binding | competition with immobilised ligand | – | 75%

Sample 4 — observed: thermal unfolding; technique: differential scanning fluorimetry; concentration: 5.5 µM; reading: higher = more unfolded
Structure (SMILES): C[C@@H]1CN(c2ccc(-c3cc(C(=O)NCCOCCOCCOCCOCCNC(=O)Cn4cc(-c5[nH]cc(C(=O)N[C@@H](CC(N)=O)c6ccc(F)c(Cl)c6)c5-c5ccc(Cl)cc5F)cn4)ccc3F)cc2NC(=O)c2c[nH]c(=O)cc2C(F)(F)F)C[C@H](C)N1C
WDR5: WD repeat-containing protein 5 (WDR5, Homo sapiens, UniProt P61964)
DCAF1: DDB1- and CUL4-associated factor 1 (DCAF1, Homo sapiens, UniProt Q9Y4B6)
Sequence of UniProt Q9Y4B6 (whole entry, looked up): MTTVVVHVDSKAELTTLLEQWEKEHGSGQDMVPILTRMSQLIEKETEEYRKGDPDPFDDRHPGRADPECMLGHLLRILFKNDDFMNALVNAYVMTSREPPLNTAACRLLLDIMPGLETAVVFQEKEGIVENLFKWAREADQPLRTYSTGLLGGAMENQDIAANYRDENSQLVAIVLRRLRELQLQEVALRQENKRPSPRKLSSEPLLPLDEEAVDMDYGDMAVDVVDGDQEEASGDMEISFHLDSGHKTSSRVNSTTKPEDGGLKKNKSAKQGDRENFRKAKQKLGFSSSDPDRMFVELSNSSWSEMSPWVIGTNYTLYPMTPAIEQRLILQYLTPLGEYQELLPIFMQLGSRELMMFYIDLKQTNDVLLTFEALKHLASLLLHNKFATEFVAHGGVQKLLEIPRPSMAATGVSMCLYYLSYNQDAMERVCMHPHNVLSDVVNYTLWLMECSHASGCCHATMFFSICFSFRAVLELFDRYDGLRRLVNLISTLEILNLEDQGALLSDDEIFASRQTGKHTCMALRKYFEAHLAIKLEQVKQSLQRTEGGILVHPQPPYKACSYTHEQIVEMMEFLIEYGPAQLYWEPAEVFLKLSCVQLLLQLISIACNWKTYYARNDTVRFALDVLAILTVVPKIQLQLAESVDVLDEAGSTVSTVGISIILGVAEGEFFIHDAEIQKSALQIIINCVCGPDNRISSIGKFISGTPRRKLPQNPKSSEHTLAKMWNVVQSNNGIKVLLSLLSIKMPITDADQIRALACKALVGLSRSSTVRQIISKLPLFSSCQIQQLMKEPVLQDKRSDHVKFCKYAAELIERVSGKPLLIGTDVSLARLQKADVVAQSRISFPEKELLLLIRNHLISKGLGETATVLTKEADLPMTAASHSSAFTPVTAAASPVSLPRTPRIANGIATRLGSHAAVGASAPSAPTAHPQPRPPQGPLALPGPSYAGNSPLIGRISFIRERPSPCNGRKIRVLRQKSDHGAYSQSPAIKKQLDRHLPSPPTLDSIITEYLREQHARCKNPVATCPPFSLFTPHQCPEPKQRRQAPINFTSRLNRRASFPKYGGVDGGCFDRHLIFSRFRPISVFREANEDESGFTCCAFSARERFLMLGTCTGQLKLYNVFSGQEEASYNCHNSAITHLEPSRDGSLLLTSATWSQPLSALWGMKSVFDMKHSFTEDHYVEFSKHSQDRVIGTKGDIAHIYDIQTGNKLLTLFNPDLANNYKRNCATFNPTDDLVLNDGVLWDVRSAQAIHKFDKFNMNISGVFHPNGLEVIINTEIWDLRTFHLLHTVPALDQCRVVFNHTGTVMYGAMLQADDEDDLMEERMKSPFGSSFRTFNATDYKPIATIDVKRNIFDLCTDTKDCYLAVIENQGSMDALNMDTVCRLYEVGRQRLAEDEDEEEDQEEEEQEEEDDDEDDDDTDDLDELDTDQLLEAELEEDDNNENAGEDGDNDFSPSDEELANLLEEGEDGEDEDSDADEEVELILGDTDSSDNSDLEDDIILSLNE
target | temperature | SYPRO Orange fluorescence [a.u.]
WDR5 | 59.01 °C | 11000
DCAF1 | 25.6 °C | 7510
DCAF1 | 54.41 °C | 18400
DCAF1 | 41.2 °C | 10900
WDR5 | 50.8 °C | 14400
DCAF1 | 28.4 °C | 7940
DCAF1 | 61.41 °C | 45000
WDR5 | 45.4 °C | 14300
WDR5 | 88.01 °C | 43500
WDR5 | 28.8 °C | 14800
WDR5 | 90.01 °C | 43200
